Measured values gathered from unrelated publications.
Values joined by “and” are separate records of one study, mostly repeats; a detail may differ. ± gives the spread as reported.

C=CCn1c(=O)c2cnc(Nc3ccc(N4CCN(C)CC4)cc3)nc2n1-c1ccc2c(n1)[C@@](O)(CC)CC2  tumour growth inhibition (COLO 205 xenograft, BALB/c nude mice; oral, 60 mg/kg once daily x 22, day 21; relative to: vehicle): 30%
O=C(O)CNC(=O)Cc1ccccc1  sarcomere length (ventricular cardiomyocytes, C57BL/6 mouse; dose not given, 0.792 s): 1.7 µm
COc1cc(Nc2ncc3c(n2)-c2ccc(Cl)cc2C(c2c(F)cccc2OC)=NC3)ccc1C(=O)O  median response score (female NOD/scid mice, ALL-8 T-cell ALL xenograft; 20.8 mg/kg, 5 days weekly, score scale 0 to 10; direction not given): 10
Cc1noc(C)c1-c1cc(C(O)(c2ccccn2)c2ccccn2)c2nc(C3CC3)[nH]c2c1  maximum inhibition (measured: CCR2 expression; human, peripheral blood; 9 mg, day 8, 1604 study): 73%
Cc1c(C)n(Cc2cccc(OC(C)(C)C(=O)O)c2)c2ccc(C(=O)N[C@@H](C)c3ccc(C(C)(C)C)cc3)cc12  bone volume (C57BL/6 mouse, diet-induced obesity, L4 vertebra; dose not given): 0.314 ± 0.103 mm3
COc1cc(O)c(CC=C(C)C)c(O)c1C(=O)/C=C/c1ccc(O)cc1  blood glucose (glucose tolerance test; Tac:SW mice (male, conventional, high-fat diet); in diet, 60 mg/kg per day, 30 min after glucose, after 10 weeks): 266 mg/dL
CSCCNc1nc(SCCC(F)(F)F)nc2c1ncn2[C@@H]1O[C@H](COP(=O)(O)OP(=O)(O)C(Cl)(Cl)P(=O)(O)O)[C@@H](O)[C@H]1O  patients with IPA above 80% (light transmittance aggregometry; human patients, platelet-rich plasma; dose not given, 2 h, with: ADP 5 µM; relative to: patients): 7.5%
CC1(C)CCC(CN2CCN(c3ccc(C(=O)NS(=O)(=O)c4ccc(NCC5CCOCC5)c([N+](=O)[O-])c4)c(Oc4cnc5[nH]ccc5c4)c3)CC2)=C(c2ccc(Cl)cc2)C1  EC50 (cell killing, flow cytometry PI exclusion; canine blood CD21+ B cells, dog 39; 24 h): 873 nM
N#Cc1ccc2c(c1)[C@H]1CCCN(C(=O)c3ccc4[nH]cnc4c3)[C@H]1C2  plasma level (measured: ACTH; human, Phase II trial; oral, 240 mg once daily, last treatment, HPA axis, mean): 11.3 pmol/L
Cc1c(C)c2c(c(C)c1O)CCC(C)(COc1ccc(CC3SC(=O)NC3=O)cc1)O2 (stereo not drawn)  exchange rate constant (deuterium-hydrogen exchange; aqueous phosphate buffer; pH 7.4, 37 °C): -0.11 h⁻¹
C[C@H]1C[C@H]2CSC(N)=N[C@@]2(c2nc(NC(=O)c3ccc(OC(F)F)cn3)cs2)CO1  percent change from baseline (measured: total Aβ; healthy adults, plasma; 12 mg single dose, 8 h post-dose; relative to: placebo): -46.9%
C[C@H]1O[C@@H](O[C@H]2CC[C@@]3(C)[C@@H](CC[C@]4(C)[C@@H]3C=C[C@]35OC[C@@]6(CCC(C)(C)C[C@H]63)[C@@H](O)C[C@]54C)[C@]2(C)CO)[C@H](O)[C@@H](O[C@@H]2O[C@H](CO)[C@@H](O)[C@H](O)[C@H]2O)[C@H]1O  triglyceride level (chronic-plus-binge ethanol mice, plasma; oral, 5 mg/kg/day for 7 d, 168 h): 0.942 mM and 1.14 mM and 0.827 mM and 0.748 mM and 0.958 mM and 0.994 mM
O=P(O)(O)C(Cl)(Cl)P(=O)(O)O  GFAP-positive area (Mus musculus, subarachnoid haemorrhage, hippocampal fissure; concentration not given, day 1; relative to: total area): 4.21% and 3.26% and 4.86%
N#Cc1ccn2c(-c3ccncc3)c(-c3ccc(F)cc3)nc2c1  log2 fold change (kinase binding, competitor, MIB/MS competition, measured: CMK2; Candida albicans cell lysate; 10 µM; relative to: DMSO): -0.593
CCN1CCN(Cc2ccc(Nc3ncc(F)c(-c4cc(F)c5nc6n(c5c4)[C@H](C)CCC6)n3)nc2)CC1  not evaluable response (human advanced solid tumours; 100 mg, phase Ia monotherapy RECIST 1.1): 0%
CN[C@@H]1COc2c(S(=O)(=O)NC(=O)Nc3c4c(cc5c3CCC5)CCC4)cnn2C1  inhibition (measured: IL-18; human participants, whole blood ex vivo; 300 mg twice daily, multiple doses, 4 h, IL-18, circulating, adjusted for, with: LPS/ATP; relative to: baseline): 95.4%
COc1ccccc1[C@H](Cn1c(=O)n(C(C)(C)C(=O)O)c(=O)c2c(C)c(-c3ncco3)sc21)OC1CCOCC1  fractional hepatic DNL ([1-13C]acetate infusion, isotopomer analysis; overweight or obese healthy men, plasma VLDL-TG palmitate; oral, 50 mg single dose, 0 h relative to dose, fasted baseline): 5.12 % new palmitate
O=C(OC(C(F)(F)F)C(F)(F)F)N1CCN(Cc2cccc(Oc3ccccc3)c2)CC1  tracer distribution volume (PET; rhesus monkey, hippocampus; intravenous, 0.01 mg/kg, pretreatment blocking, with: [18F]T-401): 6.49 mL/cm3

Some of these lines once more:
COc1cc(O)c(CC=C(C)C)c(O)c1C(=O)/C=C/c1ccc(O)cc1  blood glucose (glucose tolerance test; Tac:SW mice (male, conventional, high-fat diet); in diet, 60 mg/kg per day, 30 min after glucose, after 10 weeks): 266 mg/dL
